# Measurements gathered from unrelated publications.
# Lines come from different studies, so protocols differ. “And” joins repeats or separate records; there may be more than shown.
# Target: Dual specificity tyrosine-phosphorylation-regulated kinase 1A (DYRK1A, Homo sapiens, UniProt Q13627)
SMILES,test,conditions,how to read,measurement,result
CNC(=O)C[C@H](Cc1ccc(C#N)cc1)NC(=O)c1cc(-c2ccc(CN[C@H](C)c3ccc(C)cc3)o2)ccc1Cl,"enzyme activity, inhibitor",1 µM,,activity vs control,110%
Cc1cccc(-c2ccc3nc(NC(=O)C4CCCCC4)nn3c2)c1,"enzyme activity, Dundee kinase panel",10 µM,,remaining activity,10%
O=C(Nc1cc(-c2ccnc3[nH]ccc23)c(Cl)cn1)[C@H]1CCC[C@@H](NC(=O)C(F)(F)F)C1,"binding, competition with immobilised ligand",0.1 µM,,remaining binding,18%
COc1c(Cl)cccc1Nc1c(-c2ccncc2C#C[C@@]2(C)CCCN2C(=O)/C=C/CN(C)C)[nH]c2c1C(=O)NCC2,"cell-free assay, competition with immobilised ligand",3 µM,,remaining binding,75%
CCn1c(=O)c(=O)n(CC)c2ccccc21,"enzyme activity, inhibitor, ADP detection",10 µM,,inhibition,92.5%
Cc1cccc(-c2ccc3nc(NC(=O)C4CCOCC4)nn3c2)c1,"enzyme activity, Dundee kinase panel",10 µM,,remaining activity,36%
Cc1ccc(-c2c(/C=C(\C#N)C(=O)NC(C)C)n(CCCO)c3ncnc(N)c23)cc1,"cell-free assay, competition with immobilised ligand",1 µM,,remaining binding,100%
Nc1ncc2c(n1)-c1c([nH]c3ccc(C4=CCOCC4)cc13)CCC2,"binding, competition with immobilised ligand",1 µM,,remaining binding,17%
CN1CCN(Cc2ccc(-c3ccc(CO[C@H]4CCC[C@@H]4NC(=O)c4cc(-c5cnn(C)c5)cnc4N)cc3)cc2)CC1,"enzyme activity, inhibitor",0.1 µM,,inhibition,11%
C=CC(=O)Nc1cccc(-c2cnc3[nH]cc(C(=O)NC(C)(C)C)c3n2)c1,"enzyme activity, inhibitor",0.1 µM,,inhibition,10%
CC(C)=CC1OC(C)(C)C2C=C3C(=O)C(Cl)=CC(O)C3C3C(O)C4OC4C(=O)C132 (stereo not drawn),"cell-free assay, competition with immobilised ligand",10 µM,,remaining binding,69%
Cc1cnc2nc1Nc1cccc(c1)COC/C=C/COCc1cc(ccc1OCCN1CCOCC1)N2,binding,0.1 µM,,remaining binding,65%
Cc1cccc(O[C@H]2CCC[C@@H](C(C)CNCc3ccncc3)C2)c1 (relative stereo),cell-free assay,10 µM,,inhibition,-2%
NC(=O)[C@@H](O)C[C@H]1CCc2sc3ncnc(O[C@H]4CC[C@H](N5CCOCC5)CC4)c3c21,"enzyme activity, inhibitor",10 µM,,inhibition,94%
CCn1cc(C(=O)O)c(=O)c2c(N)c(F)c(NC3CCCCC3)cc21,kinase activity,"0.1 µM, added: ATP at Km",,inhibition,13.3%
Nc1nc(Nc2ccccc2)sc1C(=O)c1ccccc1,"enzyme activity, inhibitor",10 µM,,remaining activity,12%
CNC1C[S+]2CC[S+]3CC[S+](C1)[Ru-4]321([N]=C=S)[n]2c3ccc(OC)cc3c3c4c(c5cc(F)c[n+]1c5c32)C(=O)NC4=O (stereo not drawn),KinomeScan,0.1 µM,baseline: untreated,remaining binding,85%
COCC12C(=O)NC3C4(C(OC)CC1O)C1CC5(O)C(OC)C(O)C(OC(C)=O)(C1C5OC(=O)c1ccccc1)C3(O)C(OC)C24 (stereo not drawn),"kinase activity, inhibitor, ProQinase kinase profiling",25 µM,baseline: control,remaining activity,106% and 113%

# A few entries again:
SMILES,test,conditions,how to read,measurement,result
CNC(=O)C[C@H](Cc1ccc(C#N)cc1)NC(=O)c1cc(-c2ccc(CN[C@H](C)c3ccc(C)cc3)o2)ccc1Cl,"enzyme activity, inhibitor",1 µM,,activity vs control,110%
Cc1cccc(-c2ccc3nc(NC(=O)C4CCCCC4)nn3c2)c1,"enzyme activity, Dundee kinase panel",10 µM,,remaining activity,10%
